{"data": "Measurements gathered from unrelated publications", "target": "Serine/threonine-protein kinase TBK1 (TBK1, Homo sapiens, UniProt Q9UHD2)", "note": "Each line is one published result; not all experiments were run side by side. Values joined by “and” are separate records of one study, mostly repeats; a detail may differ."}
{"Compound": "COc1c(Cl)cccc1Nc1c(-c2ccncc2C#C[C@@]2(C)CCCN2C(=O)/C=C/CN(C)C)[nH]c2c1C(=O)NCC2", "assay": "binding, competition with immobilised ligand", "setting": "3 µM", "endpoint": "remaining binding", "value": "100%"}
{"Compound": "CNC(=O)C1CCN(c2cc(C)c(F)cc2NC(=O)c2ccc(-c3cc(O)ccc3C)c(C)c2)CC1", "assay": "binding, competition with immobilised ligand", "setting": "1 µM", "endpoint": "remaining binding", "value": "100%"}
{"Compound": "C=CC(=O)Nc1cccc(-c2cnc3[nH]cc(C(=O)NC(C)(C)C)c3n2)c1", "assay": "enzyme activity, inhibitor", "setting": "0.1 µM", "endpoint": "inhibition", "value": "20%"}
{"Compound": "Nc1nc(Nc2ccccc2)sc1C(=O)c1ccccc1", "assay": "enzyme activity, inhibitor", "setting": "10 µM", "endpoint": "remaining activity", "value": "53%"}
{"Compound": "CCN1CCN(Cc2ccc(C(=O)Nc3ccc(C)c(NCc4cnc5[nH]ccc5c4OC)c3)cc2C(F)(F)F)CC1", "assay": "binding, competition with immobilised ligand", "setting": "1 µM", "endpoint": "remaining binding", "value": "90%"}
{"Compound": "COc1ccc(NC(=O)Nc2ccc3c(c2)C(=O)N(C(C)CO)CC(C)C(CN(C)Cc2ccc4c(c2)OCO4)O3)cc1 (centres unmarked)", "assay": "kinase activity, KinaseProfiler", "setting": "0.03 µM, species human", "how to read": "relative to: control", "endpoint": "remaining activity", "value": "101%"}
{"Compound": "COc1cc(Nc2nc(C)cc(-c3cnn4nc(OC)ccc34)n2)cc(C(F)(F)F)c1", "assay": "binding, competition with immobilised ligand", "setting": "1 µM", "endpoint": "remaining binding", "value": "80%"}
{"Compound": "CNC1C[S+]2CC[S+]3CC[S+](C1)[Ru-4]321([N]=C=S)[n]2c3ccc(OC)cc3c3c4c(c5cc(F)c[n+]1c5c32)C(=O)NC4=O (centres unmarked)", "assay": "KinomeScan", "setting": "0.1 µM", "how to read": "relative to: untreated", "endpoint": "remaining binding", "value": "96%"}
{"Compound": "Cc1ccc(-c2c(/C=C(\\C#N)C(=O)NC(C)C)n(CCCO)c3ncnc(N)c23)cc1", "assay": "cell-free assay, competition with immobilised ligand", "setting": "1 µM", "endpoint": "remaining binding", "value": "100%"}
{"Compound": "COCC12C(=O)NC3C4(C(OC)CC1O)C1CC5(O)C(OC)C(O)C(OC(C)=O)(C1C5OC(=O)c1ccccc1)C3(O)C(OC)C24 (centres unmarked)", "assay": "kinase activity, inhibitor, ProQinase kinase profiling", "setting": "25 µM", "how to read": "relative to: control", "endpoint": "remaining activity", "value": "91% and 90%"}
{"Compound": "C=CC(=O)N1CCCC(n2c(=O)c3ncccc3n(Cc3ccc(Oc4ccccc4)cc3)c2=O)C1 (centres unmarked)", "assay": "cell-free assay, competition with immobilised ligand", "setting": "1 µM", "endpoint": "remaining binding", "value": "98%"}
{"Compound": "Cc1ccc(C(=O)Nc2ccc(CN3CCN(C)CC3)c(C(F)(F)F)c2)cc1C#Cc1cnc2cccnn12", "assay": "target engagement, NanoBRET", "system": "human cells", "endpoint": "upper asymptote", "value": 5.3}
{"Compound": "Cc1ccc(C)c(-c2ccc3nc(NC(=O)C4CCCCC4)nn3c2)c1", "assay": "enzyme activity, Dundee kinase panel", "setting": "10 µM", "endpoint": "remaining activity", "value": "86%"}
{"Compound": "Cc1cccc(O[C@H]2CCC[C@@H](C(C)CNCc3ccncc3)C2)c1 (relative stereo)", "assay": "enzyme activity, inhibitor", "setting": "10 µM", "endpoint": "inhibition", "value": "-3%"}
{"Compound": "Cn1cc(-c2cnc3ccc(NC(=O)Nc4ccc5sccc5c4)cc3n2)cn1", "assay": "kinase binding, KiNativ profiling, measured: Lys1 peptide", "system": "PANC-1 lysate", "setting": "2.5 µM", "endpoint": "inhibition", "value": "13.1%"}
{"Compound": "Cc1cccc(-c2ccc3nc(NC(=O)C4CCOCC4)nn3c2)c1", "assay": "enzyme activity, Dundee kinase panel", "setting": "10 µM", "endpoint": "remaining activity", "value": "99%"}
{"Compound": "COc1c(OCCCN2CCOCC2)ccc2c1N=C(NC(=O)c1cnc(N)nc1)N1CCN=C21", "assay": "kinase activity, inhibitor", "setting": "1 µM", "how to read": "relative to: untreated control", "endpoint": "remaining activity", "value": "91%"}
{"Compound": "COc1ccc(C(=O)/C=C/c2ccccc2-c2c[nH]c3ccc(C#N)cc23)c(O)c1", "assay": "enzyme activity, inhibitor", "setting": "20 µM", "endpoint": "inhibition", "value": "-6%"}
{"Compound": "NC(=O)C[C@H]1CCc2sc3ncnc(O[C@H]4CC[C@H](N5CCOCC5)CC4)c3c21", "assay": "enzyme activity, inhibitor", "setting": "10 µM", "endpoint": "inhibition", "value": "6%"}
{"Compound": "Cc1cnc2nc1Nc1cccc(c1)COC/C=C/COCc1cc(ccc1OCCN1CCOCC1)N2", "assay": "binding, competition with immobilised ligand", "setting": "0.1 µM", "endpoint": "remaining binding", "value": "57%"}
